Experimental data gathered from unrelated publications.
Each line is one published result; not all experiments were run side by side. Numbers after ± are the reported error.
Technique: steady-state kinetics
B1: enzyme (Levilactobacillus brevis, UniProt Q03Q85); chain MKVTVVGCTHAGTFAIKQILAEHPDAEVTVYERNDVISFLSCGIALYLGGKVADPQGLFYSSPEELQKLGANVQMNHNVLAIDPDQKTVTVEDLTNHAQTTESYDKLVMTSGSWPIVPKIPGIDSDRVKLCKNWAHAQALIEDAKEAKRITVIGAGYIGAELAEAYSTTGHDVTLIDAMARVMPKYFDADFTDVIEQDYRDHGVQLALGETVESFTDSATGLTIKTDKNSYETDLAILCIGFRPNTDLLKGKVDMAPNGAIITDDYMRSSNPDIFAAGDSAAVHYNPTHQNAYIPLATNAVRQGILVGKNLVKPTVKYMGTQSSSGLALYDRTIVSTGLTLAAAKQQGLNAEQVIVEDNYRPEFMPSTEPVLMSLVFDPDTHRILGGALMSKYDVSQSANTLSVCIQNENTIDDLAMVDMLFQPNFDRPFNYLNILAQAAQAKVAQSVNA
B2: PGDH1 (Oryza sativa, UniProt B7F6I8); chain VPGKPTVLVAEKLGAAGLELLRGFANVDCSYGLSPEELRAKIPLCDALIVRSGTKVGRDVFEASGGRLRVVGRAGVGIDNVDLAAATEHGCLVVNAPTANTVAAAEHGIALLTAMSRNIAQADASLKAGKWQRNKYVGVSLVGKTIAILGFGKVGSEVARRAKGLGMHVIAHDPYASADRAHAIGVELVSMEDALTTADFISLHMPLTPATNKMLNDETFAKMKKGVRIINVARGGVIDEDALVRALDSGIVAQAALDVFTKEPPAPDSKLVLHENVTVTPHLGASTVEAQEGVAIEIAEAVIGALKGELAASAVNAPMVPAEVLSELAPYVVLAEKLGRLAVQLVAGGGGIKSVKVTYASARAPDDLDTRLLRAMITKGLIEPISSVFVNLVNADFTAKQRGVRITEERILLDGSPETPIDYIQVHIAHVESKFPSAISESGEITVEGKVKDGIPHLTKVGSFQVDVSLEGSLILCRQVDQPGMIGAVGSVLGEENVNVSFMSVGRIAPRKHAVMAIGVDEEPKKSTLTKIGEIPAIEEFVFLKL
B3: GTPBP3 A322P (Homo sapiens, UniProt Q969Y2); chain TRRSSGAPAPGSGATIFALSSGQGRCGIAVIRTSGPASGHALRILTAPRDLPLARHASLRLLSDPRSGEPLDRALVLWFPGPQSFTGEDCVEFHVHGGPAVVSGVLQALGSVPGLRPAEAGEFTRRAFANGKLNLTEVEGLADLIHAETEAQRRQALRQLDGELGHLCRGWAETLTKALAHVEAYIDFGEDDNLEEGVLEQADIEVRALQVALGAHLRDARRGQRLRSGVHVVVTGPPNAGKSSLVNLLSRKPVSIVSPEPGTTRDVLETPVDLAGFPVLLSDTAGLREGVGPVEQEGVRRPRERLEQADLILAMLDASDLASPSSCNFLATVVASVGAQSPSDSSQRLLLVLNKSDLLSPEGPGPGPDLPPHLLLSCLTGEGLDGLLEALRKELAAVCGDPSTDPPLLTRARHQHHLQGCLDALGHYKQSKDLALAAEALRVARGHLTRLTGGGGTEEILDIIFQDFCVGK
B4: tsaM1 F253S/H255G/M230N/R216A/S234V/S257H (Comamonas testosteroni, UniProt P94679); chain MFIRNCWYVAAWDTEIPAEGLFHRTLLNEPVLLYRDTQGRVVALENRCCHRSAPLHIGRQEGDCVRCLYHGLKFNPSGACVEIPGQEQIPPKTCIKSYPVVERNRLVWIWMGDPARANPDDIVDYFWHDSPEWRMKPGYIHYQANYKLIVDNLLDFTHLAWVHPTTLGTDSAASLKPVIERDTTGTGKLTITRWYLNDDMSNLHKGVAKFEGKADAWQIYQWSPPALLRNDTGVAPTGTGAPEGRRVPEAVQSRGTHIQTPETETTSHYWFCQARNFDLDDEALTEKIYQGVVVAFEEDRTMIEAHEKILSQVPDRPMVPIAADAGLNQGRWLLDRLLKAENGGTAP
B5: UCK2 (Homo sapiens, UniProt Q9BZX2); chain MAGDSEQTLQNHQQPNGGEPFLIGVSGGTASGKSSVCAKIVQLLGQNEVDYRQKQVVILSQDSFYRVLTSEQKAKALKGQFNFDHPDAFDNELILKTLKEITEGKTVQIPVYDFVSHSRKEETVTVYPADVVLFEGILAFYSQEVRDLFQMKLFVDTDADTRLSRRVLRDISERGRDLEQILSQYITFVKPAFEEFCLPTKKYADVIIPRGADNLVAINLIVQHIQDILNGGPSKRQTNGCLNGYTPSRKRQASESSSRPH
B6: protein P94L (Streptomyces coelicolor, UniProt P16544); chain MATQDSEVALVTGATSGIGLEIARRLGKEGLRVFVCARGEEGLRTTLKELREAGVEADGRTCDVRSVPEIEALVAAVVERYGPVDVLVNNAGRLGGGATAELADELWLDVVETNLTGVFRVTKQVLKAGGMLERGTGRIVNIASTGGKQGVVHAAPYSASKHGVVGFTKALGLELARTGITVNAVCPGFVETPMAASVREHYSDIWEVSTEEAFDRITARVPIGRYVQPSEVAEMVAYLIGPGAAAVTAQALNVCGGLGNY
B7: cbh1 (Trichoderma reesei, UniProt P62694); chain QSACTLQSETHPPLTWQKCSSGGTCTQQTGSVVIDANWRWTHATNSSTNCYDGNTWSSTLCPDNETCAKNCCLDGAAYASTYGVTTSGNSLSIGFVTQSAQKNVGARLYLMASDTTYQEFTLLGNEFSFDVDVSQLPCGLNGALYFVSMDADGGVSKYPTNTAGAKYGTGYCDSQCPRDLKFINGQANVEGWEPSSNNANTGIGGHGSCCSEMDIWEANSISEALTPHPCTTVGQEICEGDGCGGTYSDNRYGGTCDPDGCDWNPYRLGNTSFYGPGSSFTLDTTKKLTVVTQFETSGAINRYYVQNGVTFQQPNAELGSYSGNELNDDYCTAEEAEFGGSSFSDKGGLTQFKKATSGGMVLVMSLWDDYYANMLWLDSTYPTNETSSTPGAVRGSCSTSSGVPAQVESQSPNAKVTFSNIKFGPIGSTGNPSGGNPPGGNRGTTTTRRPATTTGSSPGPTQSHYGQCGGIGYSGPTVCASGTTCQVLNPYYSQCL
B8: sacB Y439F (Priestia megaterium, UniProt D5DC07); chain KGNDSKDFNNSYGISHITRDNMVKIPQQQNSDQFKVPAFDESTIKNIASAKGKNASGNTIDLDVWDSWPLQNADGTVATYHGYQIVFALAGDPKDSNDTSVYLFYKKAGDKSIDSWKNAGRVFKDSDKFVPNDPHLKNQTQEWSGSGTLTKDGKVRLFYTDYSGKQYGKQTLTTAQVNMSQPNDNTLKVDGVEDYKSIFDGDGKIYQTVQQFIDEGGYDTGDNHTLRDPHYIEDNGHKYLVFEANTGTEDGYQGEDSLYNRAYYGGNNPFFQSEKKKLLEGSNKEKASLANGALGIIELNDDYTLKKVMKPLITSNTVTDEIERANIFKKDGKWYLFTDSRGSKMTIDGIGQDDVYMLGYVSNTLTGKYKPLNDTGLVLHMDLDPNDKTFTYSHFAVPQTKGDNVVITSFMTNRGFYEDNHSTFAPSFLVNIDGSKTSVVKDRVLEQGQLTVDED
B9: enzyme (Tetranychus urticae, UniProt T1KUK4); chain MNPETMNENGKSLKILFTALFGPGHLNACLGIGSLLRKRGHQIYFAHFPRHRATIEKHGFLFISLLDYAEPEFPIVDMLPDIGIIAKFAFERMHKLTPLELFRHASGKHTFAGMVNGSKGENYAMMKIVKEYKPDVCLADYLFNMPWMFTVDCPVIPVKSVNPIELYNGPPALTGCSIHDPPSVREEIEQLARKSELELESELEKLFAHFNVPLVSYNYAQQLGIYIYPGPLDYKELGSPKENWVRLDSSIRSTEISNFELPEKLKDKPGKLIYVSMGSLASAVTELLTMILTPLANSPHRFIVSTGPNGDSIKLYDNMWGDKFINQVALLPKVDLFITHGGSNSLIEGLTAGKPLIAIPQFGDQLDNAQRIADLGLGVRLNLHEFSGEKLLKAIEDVLNDEKINANVARVSEELKKSDSKDKVISLIEKLARDKKL
UniProt P19337, sequence (whole entry, looked up): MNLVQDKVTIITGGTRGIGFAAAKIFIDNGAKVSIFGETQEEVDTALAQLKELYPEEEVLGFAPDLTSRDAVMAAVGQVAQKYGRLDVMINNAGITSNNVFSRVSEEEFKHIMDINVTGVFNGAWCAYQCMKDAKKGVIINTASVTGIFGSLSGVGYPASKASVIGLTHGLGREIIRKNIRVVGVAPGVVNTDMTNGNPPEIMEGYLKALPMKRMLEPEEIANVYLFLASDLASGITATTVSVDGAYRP
UniProt P10724, sequence (whole entry, looked up): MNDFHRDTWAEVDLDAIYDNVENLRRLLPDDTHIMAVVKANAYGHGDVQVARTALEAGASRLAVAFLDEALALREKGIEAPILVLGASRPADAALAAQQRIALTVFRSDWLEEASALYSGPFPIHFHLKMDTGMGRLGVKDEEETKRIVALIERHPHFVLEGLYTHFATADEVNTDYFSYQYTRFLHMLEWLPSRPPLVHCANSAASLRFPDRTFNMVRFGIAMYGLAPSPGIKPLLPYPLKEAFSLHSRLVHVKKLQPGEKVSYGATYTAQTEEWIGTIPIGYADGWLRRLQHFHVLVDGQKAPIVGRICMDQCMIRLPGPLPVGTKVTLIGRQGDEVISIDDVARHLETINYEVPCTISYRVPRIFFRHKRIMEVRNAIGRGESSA

For `B1 (enzyme)`, the kcat/Km was 9.3e+06 ± 500000 M⁻¹ s⁻¹ (NC(=O)C1=CN([C@@H]2O[C@H](COP(=O)(O)OP(=O)(O)OC[C@H]3O[C@@H](n4cnc5c(N)ncnc54)[C@H](O)[C@@H]3O)[C@@H](O)[C@H]2O)C=CC1; pH 7.5, 37 °C, per site).
`alanine racemase (Geobacillus stearothermophilus, UniProt P10724)` gave a kcat/Km of 1.6e+06 M⁻¹ s⁻¹ (C[C@@H](N)C(=O)O; pH 9, room temperature, added: NAD+ 10 mM).
For `enzyme (Thermobifida fusca, UniProt Q47RK4)`, the kcat/Km was 1.5 M⁻¹ s⁻¹ (CC(=O)SCCNC(=O)CCNC(=O)[C@H](O)C(C)(C)COP(=O)(O)OP(=O)(O)OC[C@H]1O[C@@H](n2cnc3c(N)ncnc32)[C@H](O)[C@@H]1OP(=O)(O)O; pH 7.4, 37 °C).
The kcat/Km of `B2 (PGDH1)` is reported as 94000 ± 8000 M⁻¹ s⁻¹ (O=C(O)[C@H](O)COP(=O)(O)O; pH 9, 25 °C, NaCl 0.1 M, apparent, added: NAD+).
`alanine aminopeptidase (Neisseria meningitidis, UniProt Q9JYV4)` has a kcat/Km of 111000 ± 5000 M⁻¹ s⁻¹ (NC(=O)Cc1cc(=O)oc2cc(NC(=O)[C@@H](N)CCC(=O)OCc3ccccc3)ccc12; pH 7.5, 37 °C).
`B3 (GTPBP3 A322P)` has a kcat/Km of 81.7 M⁻¹ s⁻¹ (Nc1nc2c(ncn2[C@@H]2O[C@H](COP(=O)(O)OP(=O)(O)OP(=O)(O)O)[C@@H](O)[C@H]2O)c(=O)[nH]1; pH 8, 37 °C, KCl 300 mM).
With `protein (Streptomyces coelicolor, UniProt Q9K464)` the kcat/Km was 17800 M⁻¹ s⁻¹ (CC(C)C(=O)CC(=O)SCCNC(=O)CCNC(=O)[C@H](O)C(C)(C)COP(=O)(O)OP(=O)(O)OC[C@H]1O[C@@H](n2cnc3c(N)ncnc32)[C@H](O)[C@@H]1OP(=O)(O)O; pH 7.8, 30 °C, NaCl 150 mM, added: methylmalonyl-CoA 1.0 mM).
`B4` has a kcat/Km of 5100 ± 530 M⁻¹ s⁻¹ (COc1cc(C(=O)O)ccc1O; apparent, added: NADH 1 mM).
For `B5 (UCK2)`, the kcat/Km was 90000 M⁻¹ s⁻¹ (O=c1ccn([C@@H]2O[C@H](CO)[C@@H](O)[C@H]2O)c(=O)[nH]1; pH 7.2, 25 °C, KCl 100 mM, added: ATP 100–200 µM).
For `B6 (protein P94L)`, the kcat/Km was 36 ± 11 M⁻¹ s⁻¹ (O[C@H]1CCCc2ccccc21; pH 7.4, phosphate 400 mM, NADPH 250 µM printed, added: NADP+, reverse reaction).
The kcat/Km of `B7 (cbh1)` is reported as 9.5 M⁻¹ s⁻¹ (O=[N+]([O-])c1ccccc1O[C@@H]1O[C@H](CO)[C@@H](O[C@@H]2O[C@H](CO)[C@@H](O)[C@H](O)[C@H]2O)[C@H](O)[C@H]1O; pH 5, 25 °C, apparent).
The kcat/Km of `B8 (sacB Y439F)` is reported as 1980 M⁻¹ s⁻¹ (OC[C@H]1O[C@@](CO)(O[C@H]2O[C@H](CO)[C@@H](O)[C@H](O)[C@H]2O)[C@@H](O)[C@@H]1O; pH 6.6).
With `BaiA2 (Clostridium scindens, UniProt P19337)` the kcat/Km was 5220 M⁻¹ s⁻¹ (C[C@H](CCC(=O)SCCNC(=O)CCNC(=O)[C@H](O)C(C)(C)COP(=O)(O)OP(=O)(O)OC[C@H]1O[C@@H](n2cnc3c(N)ncnc32)[C@H](O)[C@@H]1OP(=O)(O)O)[C@H]1CC[C@H]2[C@@H]3[C@H](O)C[C@@H]4C[C@H](O)CC[C@]4(C)[C@H]3C[C@H](O)[C@]12C; pH 8.7, 37 °C, added: NAD+).
For `B9 (enzyme)`, the kcat/Km was 1900 ± 700 M⁻¹ s⁻¹ (O=c1ccn([C@@H]2O[C@H](CO[P@@](=O)(O)O[P@@](=O)(O)O[C@H]3O[C@H](CO)[C@@H](O)[C@H](O)[C@H]3O)[C@@H](O)[C@H]2O)c(=O)[nH]1; pH 7.8).

Some of these lines once more:
`B4` has a kcat/Km of 5100 ± 530 M⁻¹ s⁻¹ (COc1cc(C(=O)O)ccc1O; apparent, added: NADH 1 mM).
For `B5 (UCK2)`, the kcat/Km was 90000 M⁻¹ s⁻¹ (O=c1ccn([C@@H]2O[C@H](CO)[C@@H](O)[C@H]2O)c(=O)[nH]1; pH 7.2, 25 °C, KCl 100 mM, added: ATP 100–200 µM).
